# Published values gathered from unrelated publications.
# Lines come from different studies, so protocols differ. Several values in a cell are separate wells, animals, samples, runs or records. ± marks the error that the study gave.
SMILES,tested on,assay,test system,conditions,scale,endpoint,value
COc1cccc(OC)c1-c1cc(C(=O)NC2(C(=O)O)C3CC4CC(C3)CC2C4)nn1-c1ccc(C(=O)N(C)CCCN(C)C(=O)[C@H](CCCCNC(=O)[C@H](CC(C)C)NC(=O)C2OC2C(=O)O)NC(=O)CN2CCN(CC(=O)[O-])CCN(CC(=O)[O-])CCN(CC(=O)[O-])CC2)cc1C(C)C.[177Lu+3] (mixture of isomers),,,"mouse, HT-29 xenograft, liver",24 h post injection,,tissue uptake,0.82 %ID/g
C=CC(=O)Nc1cccc(Cn2ncc3cnc(Nc4cnn(CCOC)c4)nc32)c1,CAMK2A human,"binding, KINOMEscan",,100 nM,lower = stronger binding,percent of control,100%
[11CH3]N1CCC(NC(=O)c2cc(-c3c(O)cc(O)cc3Oc3ccc([N+](=O)[O-])cc3)on2)CC1,,,"Wistar rat, female, healthy, kidneys","intravenous, 10 min",,tissue uptake,9.6 ± 1.4 %ID
COc1cccc(OC)c1-c1cc(C(=O)NC2(C(=O)O)C3CC4CC(C3)CC2C4)nn1-c1ccc(C(=O)N(C)CCCN(C)CCCN(C)C(=O)[C@H](CCCCNC(=O)[C@H](CC(C)C)NC(=O)C2OC2C(=O)O)NC(=O)CN2CCN(CC(=O)[O-])CCN(CC(=O)[O-])CCN(CC(=O)[O-])CC2)cc1C(C)C.[177Lu+3] (mixture of isomers),,,"mouse, HT-29 xenograft, heart",4 h post injection,,tissue uptake,2.2 %ID/g
Cc1ncsc1-c1ccc(C(C)NC(=O)C2CC(O)CN2C(=O)C(NC(=O)CCCCCCCCCCN2CCCC(Nc3ncc(Cl)c(Nc4ccccc4S(=O)(=O)C(C)C)n3)C2)C(C)(C)C)cc1 (stereo not shown),22Rv1,"RNA-seq, measured: PTGFR mRNA",,concentration not given,relative to: DMSO,log2 fold change,-1.37
Cc1cc(C)n(CCN(CCN)CCCCCCNC(=O)[C@@H](N)Cc2c[nH]cn2)n1.[99Tc+].[C-]#[O+].[C-]#[O+].[C-]#[O+],,,"BALB/c nude mice MCF7 xenograft, brain","intravenous, 15 min",,tissue uptake,0.16 ± 0.01 %ID/g
O=C(NCC1OC2CCC=CCCC2O1)c1ccc([18F])nc1 (stereo not shown),,,"healthy female BALB/c nude mice, lungs","intravenous, 7.4 MBq per mouse, 120 min",,tissue uptake,0.5 ± 0.03 %ID/g
COc1cccc(OC)c1-c1cc(C(=O)NC2(C(=O)O)C3CC4CC(C3)CC2C4)nn1-c1ccc(C(=O)N(C)CCOCCN(C)C(=O)[C@H](CCCCNC(=O)[C@H](CC(C)C)NC(=O)C2OC2C(=O)O)NC(=O)CN2CCN(CC(=O)[O-])CCN(CC(=O)[O-])CCN(CC(=O)[O-])CC2)cc1C(C)C.[177Lu+3] (mixture of isomers),,,"mouse, HT-29 xenograft, heart",72 h post injection,,tissue uptake,0.14 %ID/g
CNC(=O)C1CCCN(C(=O)C2CC3CCC2N3C(=O)[C@@H]2C[C@@H](O)CN2C(=O)NCc2cccc(Cl)c2F)C1 (mixture of isomers),human CYP3A4,time-dependent inhibition,,"0.206 µM, preincubation with NADPH, together with: testosterone",,6β-hydroxytestosterone formed,187 ng/mL
COC1CN([C@H]2CC[C@H]([C@@]3(C)Oc4c(Cl)cc(C(=O)NCc5c(SC)cc(C)[nH]c5=O)c(C)c4O3)CC2)C1,,"RNA-seq, measured: PXDC1","human, whole blood","dose not given, 24 h",relative to: pretreatment baseline,log2 fold change,1.28
COc1ccc(Nc2nc(Nc3ccc(OCCOCC[18F])cc3)ncc2Br)cc1,,,"ICR mice, S180 tumour-bearing, bone","intravenous, 370 kBq, 5 min",,tissue uptake,2.52 ± 0.2 %ID/g
CCCC[C@H](NC(=O)CCCCCCCNC(=O)CN1CCN(CC(=O)O)CCN(CC(=O)O)CC1)C(=O)N[C@H]1CC(=O)NCCCC[C@@H](C(N)=O)NC(=O)[C@H](Cc2c[nH]c3ccccc23)NC(=O)[C@H](CCCNC(=N)N)NC(=O)[C@@H](Cc2ccccc2)NC(=O)[C@H](Cc2c[nH]cn2)NC1=O [fluorine-18 labelled],,,"C57 mice, B16/F10 melanoma, intestines","intravenous, 0.37 MBq, 2 h",,tissue uptake,1.54 ± 0.04 %ID
COc1ccc2c(c1)C(C)(C)C(/C=C/C1=C(Oc3ccc(C(=O)NCCCCOc4cc(CN(Cc5ccccn5)Cc5ccccn5)cc(CN(Cc5ccccn5)Cc5ccccn5)c4)cc3)C(=C/C=C3/N(CCCCS(=O)(=O)[O-])c4ccc(OC)cc4C3(C)C)CCC1)=[N+]2CCCCS(=O)(=O)[O-].O=[N+]([O-])[O-].O=[N+]([O-])[O-].[99Tc+].[C-]#[O+].[C-]#[O+].[C-]#[O+].[Zn+2],,,"healthy BALB/c mice, spleen",12 h,,tissue uptake,10.8 %ID/g and 6.77 %ID/g and 7.83 %ID/g and 11.6 %ID/g
COc1cccc(OC)c1-c1cc(C(=O)NC2(C(=O)O)C3CC4CC(C3)CC2C4)nn1-c1ccc(C(=O)N(C)CCOCCOCCN(C)C(=O)[C@H](CCCCNC(=O)[C@H](CC(C)C)NC(=O)C2OC2C(=O)O)NC(=O)CN2CCN(CC(=O)[O-])CCN(CC(=O)[O-])CCN(CC(=O)[O-])CC2)cc1C(C)C.[177Lu+3] (mixture of isomers),,,"mouse, HT-29 xenograft, lung",168 h post injection,,tissue uptake,0.6 %ID/g
O=C(O)CCCOc1ccc([18F])cc1-c1cc(-c2ccccc2C(F)(F)F)n(-c2ccccc2)n1,,,"mouse, small intestine","intravenous, dose not given, 180 min",,tissue uptake,5.53 ± 0.62 %ID/g
[123I]c1ccc2nc(-c3ccc(-n4ccnn4)nc3)cn2c1,,,"male Wistar rat, small intestine","intravenous, 4 MBq, 30 min",,tissue uptake,9.77 ± 3.8 %ID/g
O=C1C2CC3CC1CC(C(=O)N1CCN(c4ccc([N+](=O)[O-])c5ncccc45)CC1)(C3)C2,Salmonella typhimurium,Ames test,TA98,"0.78 µg/well, with S9",,mean revertant colonies,7 colonies/well
COc1cccc(OC)c1-c1cc(C(=O)NC2(C(=O)O)C3CC4CC(C3)CC2C4)nn1-c1ccc(C(=O)NCCNC(=O)[C@H](CCCCNC(=O)[C@H](CC(C)C)NC(=O)C2OC2C(=O)O)NC(=O)CN2CCN(CC(=O)[O-])CCN(CC(=O)[O-])CCN(CC(=O)[O-])CC2)cc1C(C)C.[177Lu+3] (mixture of isomers),,,"mouse, HT-29 xenograft, muscle",4 h post injection,,tissue uptake,0.8 %ID/g
O=C(Nc1cnccc1-c1ccc([18F])nc1)c1ccnc(NC(=O)C2CC2)c1,,,"FVB/NJ mice, both sexes, brain","intravenous, 50 min, median, P-gp inhibitor pretreatment, together with: tariquidar 15 mg/kg iv",,SUV,0.152
CC(C)Cc1ccc(C(C)C(=O)N[C@@H](CCCCNC(=O)CCOCCOCCOCCOCCOCCOCCNC(=O)CN2CCN(CC(=O)[O-])CCN(CC(=O)[O-])CCN(CC(=O)[O-])CC2)C(=O)Nc2cccc3c(C(=O)NCC(=O)N4CC(F)(F)C[C@H]4C#N)ccnc23)cc1.[177Lu+3] (stereo partly shown),,,"mouse, U-87 MG tumour xenograft, brain",1 h,,tissue uptake,0.43 ± 0.15 %ID/g
Nc1ncc(-c2cc(-c3cnn(CC(F)(F)F)c3)ncc2F)nc1C(=O)NC1CNCC(F)C1 (stereo not shown),CDK9,KINOMEscan,,1 µM,relative to: DMSO control,remaining binding,100%
N#C[C@@H]1CC(F)(F)CN1C(=O)CNC(=O)c1ccnc2c(NC(=O)[C@@H](N)CCCCNC(=O)CCOCCOCCOCCOCCOCCOCCNC(=O)CN3CCN(CC(=O)[O-])CCN(CC(=O)[O-])CCN(CC(=O)[O-])CC3)cccc12.[177Lu+3],,,"mouse, U-87 MG tumour xenograft, lung",48 h,,tissue uptake,0.1 ± 0.03 %ID/g
O=C(NCC1OC2CCC=CCCC2O1)c1ccc(COCCOCCOCC[18F])cc1 (stereo not shown),,,"healthy female BALB/c nude mice, pancreas","intravenous, 7.4 MBq per mouse, 60 min",,tissue uptake,1.3 ± 1.2 %ID/g
N#C[C@@H]1CC(F)(F)CN1C(=O)CNC(=O)c1ccnc2c(NC(=O)[C@H](CCCCNC(=O)CCOCCOCCOCCOCCOCCOCCNC(=O)CN3CCN(CC(=O)[O-])CCN(CC(=O)[O-])CCN(CC(=O)[O-])CC3)NC(=O)CCCc3ccc(I)cc3)cccc12.[177Lu+3],,,"mouse, U-87 MG tumour xenograft, salivary gland",24 h,,tissue uptake,3.38 ± 1.02 %ID/g
C=C(NC(=O)c1csc(-c2nc3c(cc2O)-c2nc(cs2)C(=O)NC(C(C)O)C(=O)NC(=C(C)OC)c2nc(cs2)C(=O)NC2c4nc(cs4)C(=O)NC(COC(=O)c4c5c6c(cccc6n4O)COC(=O)C(OC4CC(C)(O)C(N(C)C)C(C)O4)C2OC5)c2nc-3cs2)n1)C(N)=O (stereo not shown),,,"ICR mice, Streptococcus pneumoniae ATCC 49169 infected, immunocompromised, blood","intravenous, 32 mg/kg once daily",,AUC(0-t),3.36 µM·h

# Excerpt of the above:
SMILES,tested on,assay,test system,conditions,scale,endpoint,value
C=CC(=O)Nc1cccc(Cn2ncc3cnc(Nc4cnn(CCOC)c4)nc32)c1,CAMK2A human,"binding, KINOMEscan",,100 nM,lower = stronger binding,percent of control,100%
COc1cccc(OC)c1-c1cc(C(=O)NC2(C(=O)O)C3CC4CC(C3)CC2C4)nn1-c1ccc(C(=O)N(C)CCCN(C)C(=O)[C@H](CCCCNC(=O)[C@H](CC(C)C)NC(=O)C2OC2C(=O)O)NC(=O)CN2CCN(CC(=O)[O-])CCN(CC(=O)[O-])CCN(CC(=O)[O-])CC2)cc1C(C)C.[177Lu+3] (mixture of isomers),,,"mouse, HT-29 xenograft, liver",24 h post injection,,tissue uptake,0.82 %ID/g
[11CH3]N1CCC(NC(=O)c2cc(-c3c(O)cc(O)cc3Oc3ccc([N+](=O)[O-])cc3)on2)CC1,,,"Wistar rat, female, healthy, kidneys","intravenous, 10 min",,tissue uptake,9.6 ± 1.4 %ID
